Measured values from different studies.
Each line is one published result; not all experiments were run side by side.
Target: SNF-related serine/threonine-protein kinase (SNRK, Homo sapiens, UniProt Q9NRH2)

Structure (SMILES) | test | test system | setting | how to read | measurement | result
Cc1nc2c(F)cc(-c3nc(Nc4ccc(CNC(=O)CCCCCCC(=O)NO)cc4)ncc3F)cc2n1C(C)C | enzyme activity, inhibitor |  | 1 µM |  | inhibition | 0%
CCN1CCN(Cc2ccc(C(=O)Nc3ccc(C)c(NCc4cnc5[nH]ccc5c4OC)c3)cc2C(F)(F)F)CC1 | binding, competition with immobilised ligand |  | 1 µM |  | remaining binding | 43%
CNC(=O)C[C@H](Cc1ccc(C#N)cc1)NC(=O)c1cc(-c2ccc(CN[C@H](C)c3ccc(C)cc3)o2)ccc1Cl | enzyme activity, inhibitor |  | 1 µM |  | activity vs control | 121%
CC(C)=CC1OC(C)(C)C2C=C3C(=O)C(Cl)=CC(O)C3C3C(O)C4OC4C(=O)C132 (centres unmarked) | cell-free assay, competition with immobilised ligand |  | 10 µM |  | remaining binding | 90%
Cc1cnc2nc1Nc1cccc(c1)COC/C=C/COCc1cc(ccc1OCCN1CCOCC1)N2 | binding, competition with immobilised ligand |  | 0.1 µM |  | remaining binding | 100%
C=CC(=O)N1CCc2ccc(-n3c(=O)ccc4cnc5ccc(-c6cnn(C)c6)cc5c43)cc21 | KINOMEscan |  | 1 µM | reference: DMSO control | remaining binding | 100%
CCn1cc(C(=O)O)c(=O)c2c(N)c(F)c(NC3CCCCC3)cc21 | kinase activity |  | 0.1 µM, added: ATP at Km |  | inhibition | -3.2%
CNC(=O)C1CCN(c2cc(C)c(F)cc2NC(=O)c2ccc(-c3cc(O)ccc3C)c(C)c2)CC1 | binding, competition with immobilised ligand |  | 1 µM |  | remaining binding | 100%
Nc1ncc2c(n1)-c1c([nH]c3ccc(C4=CCOCC4)cc13)CCC2 | binding, competition with immobilised ligand |  | 1 µM |  | remaining binding | 100%
C=CC(=O)N1CCCC(n2c(=O)c3ncccc3n(Cc3ccc(Oc4ccccc4)cc3)c2=O)C1 (centres unmarked) | cell-free assay, competition with immobilised ligand |  | 1 µM |  | remaining binding | 89%
COc1c(Cl)cccc1Nc1c(-c2ccncc2C#C[C@@]2(C)CCCN2C(=O)/C=C/CN(C)C)[nH]c2c1C(=O)NCC2 | binding, competition with immobilised ligand |  | 3 µM |  | remaining binding | 100%
COc1cc(Nc2nc(C)cc(-c3cnn4nc(OC)ccc34)n2)cc(C(F)(F)F)c1 | binding, competition with immobilised ligand |  | 1 µM |  | remaining binding | 100%
O=C(Cc1ccc(OCc2ccccc2)cc1)NC1(C(=O)O)CCN(C(=O)c2ccc(-c3cccc(Cl)c3)cc2)CC1 | enzyme activity, inhibitor |  | 10 µM |  | activity vs control | 120%
CN1CC[C@@H](COc2cnc(C#N)cc2-c2ccn3nc(NC(=O)C4CC4)cc3c2)C1 | enzyme activity, inhibitor |  | 1 µM |  | inhibition | 9%
Cc1ccc(-c2c(/C=C(\C#N)C(=O)NC(C)C)n(CCCO)c3ncnc(N)c23)cc1 | cell-free assay, competition with immobilised ligand |  | 1 µM |  | remaining binding | 79%
COc1cc(Nc2nccc(-c3cnn4nc(OC)ccc34)n2)cc(C(F)(F)F)c1 | binding, competition with immobilised ligand |  | 1 µM |  | remaining binding | 89%
Nc1ncc(-c2cc(-c3cnn(CC(F)(F)F)c3)ncc2F)nc1C(=O)NC1CNCC(F)C1 (centres unmarked) | enzyme activity |  | 1 µM | reference: DMSO control | remaining activity | 96.5%
CS(=O)(=O)Nc1cccc(-c2csc3cnc(Nc4ccc(N5CCN(CCCCCOc6cccc7c6C(=O)N(C6CCC(=O)NC6=O)C7=O)CC5)cc4)nc23)c1 (centres unmarked) | probe labelling, inhibitor, KiNativ chemoproteomics | MOLT-4 | 1 µM |  | inhibition | -39.2%
CNC1C[S+]2CC[S+]3CC[S+](C1)[Ru-4]321([N]=C=S)[n]2c3ccc(OC)cc3c3c4c(c5cc(F)c[n+]1c5c32)C(=O)NC4=O (centres unmarked) | KinomeScan |  | 0.1 µM | reference: untreated | remaining binding | 96%
Cc1ccc(C(=O)Nc2ccc(CN3CCN(C)CC3)c(C(F)(F)F)c2)cc1C#Cc1cnc2cccnn12 | target engagement, NanoBRET | human cells |  |  | upper asymptote | 34.3

Excerpt of the above:
Structure (SMILES) | test | test system | setting | how to read | measurement | result
Nc1ncc(-c2cc(-c3cnn(CC(F)(F)F)c3)ncc2F)nc1C(=O)NC1CNCC(F)C1 (centres unmarked) | enzyme activity |  | 1 µM | reference: DMSO control | remaining activity | 96.5%
